# Measurements collected from several papers.
# Compare with care: the assays were run in different laboratories. ± marks the error that the study gave.
Structure (SMILES),test,test system,conditions,ED50
C[C@]12CC[C@H](O)C[C@@H]1CC[C@@H]1[C@@H]2CC[C@]2(C)[C@@H]([N+](=O)[O-])CC[C@@H]12,protection against pentylenetetrazol seizures,male NIH Swiss mice,"intraperitoneal, 15 min before test, with: pentylenetetrazol 80 mg/kg s.c.",89.4 mg/kg
COc1cc(CCNCc2ccccc2O)c(OC)cc1C#N,,male C57BL/6J mice,"subcutaneous, 30 min session",0.53 mg/kg
CCC(C(=O)c1ccc2c(c1)OCO2)N(C)C (stereo not shown),"locomotor activity, measured: total distance traveled",C57BL/6J mice (male),subcutaneous,17.6 ± 1.6 mg/kg
CN1CC[C@]23c4c5ccc(O)c4O[C@H]2[C@@H](O)C=C[C@H]3[C@H]1C5,,B6SJL mice,subcutaneous,4.2 ± 0.6 mg/kg
CN(C)C(=O)C(CCN1CCC(O)(c2ccc(Cl)cc2)CC1)(c1ccccc1)c1ccccc1,"anti-hyperalgesia, von Frey","ICR mice, paw incision model","s.c., 1 h post-dose, single agent",3.2 mg/kg
CCCCCn1cc(C(=O)C2C(C)(C)C2(C)C)c2ccccc21,Δ9-THC discrimination substitution,C57BL/6J male mice,"ip, 30 min pre-session, with: trained on 5.6 mg/kg Δ9-THC",7.4 µmol/kg
CCCC(NC)C(=O)c1ccc2c(c1)OCO2 (racemic),locomotor activity,"C57BL/6J mice, male","subcutaneous, total distance travelled",2.79 ± 0.29 mg/kg
CN1CC[C@]23c4c5ccc(O)c4O[C@H]2c2[nH]c4ccccc4c2C[C@@]3(O)[C@H]1C5,"anti-hyperalgesia, von Frey","ICR mice, paw incision model","s.c., 1 h post-dose, single agent",8.8 mg/kg
CCNC(CC)C(=O)c1ccc2c(c1)OCO2 (stereo not shown),"locomotor activity, measured: total distance traveled",C57BL/6J mice (male),subcutaneous,~2 mg/kg
C[C@@]1(O)CC[C@@]2(C)[C@@H](CC[C@@H]3[C@@H]2CC[C@]2(C)[C@@H]([N+](=O)[O-])CC[C@@H]32)C1,protection against pentylenetetrazol seizures,male NIH Swiss mice,"intraperitoneal, 15 min before test, with: pentylenetetrazol 80 mg/kg s.c.",10 mg/kg

# Repeated from above:
Structure (SMILES),test,test system,conditions,ED50
COc1cc(CCNCc2ccccc2O)c(OC)cc1C#N,,male C57BL/6J mice,"subcutaneous, 30 min session",0.53 mg/kg
